Results pooled from the literature.
Compare with care: the assays were run in different laboratories. “And” joins repeats or separate records; there may be more than shown.
Cell line: K562

| SMILES | assay | test system | conditions | how to read | endpoint | value |
| --- | --- | --- | --- | --- | --- | --- |
| CN(C)C(=O)c1cncc(-c2cnc3[nH]cc(-c4cc(OS(=O)(=O)F)ccc4C#N)c3c2)c1 | cell growth or viability, MTT | – | 72 h | – | GI50 | > 1000 nM |
| O=C(O)c1ccc(-c2nc(-c3ccccc3Cl)c3sccn23)cc1 | megakaryocyte differentiation, flow cytometry | – | 0.01 mM, 48 h | – | CD61-positive cells | 3.5% and 1.4% |
| CC(C)(C)C(=O)OCOP(=O)(OCOC(=O)C(C)(C)C)C1CCCN(O)C1=O (centres unmarked) | – | – | – | – | log TGI | > -4 log M |
| CN(C)C(=O)c1cncc(-c2cnc3[nH]cc(-c4cc(OS(=O)(=O)F)ccc4C(F)(F)F)c3c2)c1 | cell growth or viability, MTT | – | 72 h | – | GI50 | > 1000 nM |
| Cc1sc2c(c1C)C(c1ccc(NC(=O)c3cc([N+](=O)[O-])ccc3F)cc1)=N[C@@H](CC(=O)OC(C)(C)C)c1nnc(C)n1-2 | cell growth or viability, ATP luminescence | – | 72 h | – | IC50 | 0.012 nM |
| Cc1[nH][n+]([Pt-2]([Cl])([n+]2[nH]c(C)c(CSC3CCCCC3)c2C)[n+]2[nH]c(C)c(CSC3CCCCC3)c2C)c(C)c1CSC1CCCCC1.[Cl-] | cytotoxicity | – | – | reference: IC50 HEK293 over IC50 K562 | selectivity index | 2.8 |
| Cc1cc(Oc2nc(N3CC[C@@H](c4ccncc4)C3)ncc2F)[nH]n1 | cell proliferation | blood cancer | – | – | IC50 | 20400 nM |
| CC1CCC2C(C)C(OC(=O)CCC(=O)N3CCC(Nc4ccc(S(=O)(=O)NC(=O)c5ccc(N6CCN(CC7=C(c8ccc(Cl)cc8)CC(C)(C)CC7)CC6)cc5Oc5cnc6[nH]ccc6c5)cc4[N+](=O)[O-])CC3)OC3OC4(C)CCC1C32OO4 (centres unmarked) | annexin V/PI flow cytometry, refers to: annexin V-/PI- | – | 3.2 µM, 24 h | – | viable cells | 92.1% |

Excerpt of the above:
| SMILES | assay | test system | conditions | how to read | endpoint | value |
| --- | --- | --- | --- | --- | --- | --- |
| CN(C)C(=O)c1cncc(-c2cnc3[nH]cc(-c4cc(OS(=O)(=O)F)ccc4C#N)c3c2)c1 | cell growth or viability, MTT | – | 72 h | – | GI50 | > 1000 nM |
